Results pooled from the literature.
Compare with care: the assays were run in different laboratories.

O=C1Nc2cc3[nH]nc(-c4ccncc4)c3cc2CN1Cc1ccccc1 — patients with ≥1 TEAE (CTCAE v4.03; advanced solid tumour patients; intravenous, 0.9 mg/kg, schedules 1/2): 100%
Cc1cc(OCCOCCC(F)(F)P(=O)(O)O)ccc1CCc1cnc2c(N)nc3cc(CCC(=O)O)ccc3c2c1 — patients with non-serious AE (refers to: anemia; adults with advanced solid tumours; dose not given, all groups pooled, all grades): 24.4%
CCN(CCO)CCCC(C)Nc1ccnc2cc(Cl)ccc12 (centres unmarked) — patients with adverse event (refers to: Anemia grade 1; newly diagnosed glioblastoma patients; oral, 400 mg/dose, with radiotherapy and temozolomide): 33%
C[C@@H]1OC(=O)NN=C1c1ccc(-c2ccc(F)cc2)c(C(F)(F)F)c1 — patients with back pain (patients, phase I trial; oral, 5 mg once daily, any grade TEAE): 0%
CC(=O)c1c(C)c2cnc(Nc3ccc(C4CCN(CCS(C)(=O)=O)CC4)cn3)nc2n(C2CCCC2)c1=O — patients with any TEAE (HR+/HER2- advanced breast cancer patients; oral, dose not given): 100%
CO[C@H]1C[C@@H]2CC[C@@H](C)[C@@](O)(O2)C(=O)C(=O)N2CCCC[C@H]2C(=O)O[C@H]([C@H](C)C[C@@H]2CC[C@@H](OC(=O)NCCOCCOCCOCCOCCOCCOCCOCCOCCC(=O)N3CCc4cc(Cn5nc(-c6ccc7oc(N)nc7c6)c6c(N)ncnc65)ccc4C3)[C@H](OC)C2)C[C@@H](O)[C@H](C)/C=C(\C)[C@@H](O)[C@@H](OC)C(=O)[C@H](C)C[C@H](C)/C=C/C=C/C=C/1C — patients with AE (refers to: treatment-related AEs; patients with advanced solid tumours; intravenous, 1.6 mg/3 mg, grade ≥3, weekly): 0%
CN1CC[C@@H](c2c(O)cc(O)c3c(=O)cc(-c4ccc(C(F)(F)F)cc4Cl)oc23)[C@@H]1CO — patients with adverse event (refers to: Epistaxis; relapsed AML; oral, 150 mg, grade 3-4, intermittent dosing): 50%
COc1c(OCCCN2CCOCC2)ccc2c1N=C(NC(=O)c1cnc(N)nc1)N1CCN=C21 — patients with adverse event (refers to: decreased platelet count; patients with advanced malignancies; intravenous, dose not given, any grade, all cohorts, with: gemcitabine): 80%
N[C@@H]1c2ccccc2OC12CCN(c1cnc3c(N4CCCc5ncccc54)n[nH]c3n1)CC2 — patients with fatal TEAE (advanced solid tumour patients; oral, 100 mg once daily): 14.3%
C=CCNc1c(O)cc2c(O)c1C[C@@H](C)C[C@H](OC)[C@H](O)[C@@H](C)/C=C(\C)[C@H](OC(N)=O)[C@@H](OC)/C=C\C=C(/C)C(=O)N2 — patients with AST increase (unresectable or metastatic sarcoma; intravenous, 225 mg/m^2, grade 3-4 lab change): 33%
Nc1nc2cc(-c3ccc4ncc(C(=O)N5CCOCC5)n4c3)ccc2o1 — patients with adverse event (refers to: Diarrhea; advanced solid tumour patients; dose not given): 3%

Some of these lines once more:
COc1c(OCCCN2CCOCC2)ccc2c1N=C(NC(=O)c1cnc(N)nc1)N1CCN=C21 — patients with adverse event (refers to: decreased platelet count; patients with advanced malignancies; intravenous, dose not given, any grade, all cohorts, with: gemcitabine): 80%
